Assay results of several laboratories.
± marks the error that the study gave.

Cc1cc2c(c(O)c1O)C(=O)c1c(O)cc(O)cc1C2=O — cell viability (HepaRG co-cultured with HK-2; MTT; 133.33 µM, 24 h; baseline: untreated control): 54.1 ± 6.07%
O=c1ccc2ccccc2o1 — point of departure (HepG2; measured: cell count; 24 h, inflammation and pH panel): 789 µM
O=C1c2ccccc2C(=O)c2ccccc21 — viability (HK-2 co-cultured with HepaRG; MTT; 133.33 µM, 24 h; baseline: untreated control): 148 ± 24.4%
Oc1ccc(C(c2ccc(O)cc2)(C(F)(F)F)C(F)(F)F)cc1 — early apoptotic cells (HepG2 spheroids, dissociated; annexin V-FITC/PI flow cytometry; 1 µM, 24 h): 17.2 ± 7.22%
CC(=O)OC[C@H]1O[C@@H](Oc2cc(O)cc3cc4oc(C)cc(=O)c4c(O)c23)[C@H](O)[C@@H](O)[C@@H]1O — cell viability (HK-2 co-cultured with HepaRG; MTT; 16.67 µM, 24 h; baseline: untreated control): 112 ± 15%
O=C(O)C(F)(F)C(F)(F)C(F)(F)C(F)(F)C(F)(F)F — LDH activity in medium (hTERT-RPTEC-OAT1; LDH release; culture medium; concentration not given, 24 h, 96-well plate): 4.64 mU/mL
N#C[C@@]1(n2ccc(N)nc2=O)O[C@H](CO)[C@@H](O)[C@H]1O — micronucleated cells (CHO; 31 µM, without S9): 0.23%
O=C(O)/C=C/c1ccc(O)c(O)c1 — subcytotoxic concentration (HaCaT; MTT; 24 h, 10% FBS): 50 µM
CC(C)c1c(C(=O)Nc2ccccc2)c(-c2ccccc2)c(-c2ccc(F)cc2)n1CC[C@@H](O)C[C@@H](O)CC(=O)O — IC10 (MCF7 AREc32 cells; cell viability, IncuCyte imaging; 24 h, freely dissolved concentration): 5.22 µM

A few entries again:
O=c1ccc2ccccc2o1 — point of departure (HepG2; measured: cell count; 24 h, inflammation and pH panel): 789 µM
O=C1c2ccccc2C(=O)c2ccccc21 — viability (HK-2 co-cultured with HepaRG; MTT; 133.33 µM, 24 h; baseline: untreated control): 148 ± 24.4%
